{"data": "Assay results gathered from unrelated publications", "note": "Parts stem from different laboratories: compare values within a part only."}
{"data": "Study 1", "target": "RING finger protein unkempt homolog, zinc fingers 1-6, GST-SBP tag (UNK, Homo sapiens, UniProt Q9C0B0, residues 30-357)", "technique": "RNA Bind-n-Seq", "molecule type": "RNA", "medium": "in vitro", "concentration": "not given", "notes": "RNA with constant flanks, ends assumed", "reference": "input RNA pool", "direction": "higher = stronger binding", "shared flanks, not repeated": "GGGAGUUCUACAGUCCGACGAUC … CAACAGAGGAUUGAGCAUCA", "chain of UniProt Q9C0B0 (30-357, looked up)": "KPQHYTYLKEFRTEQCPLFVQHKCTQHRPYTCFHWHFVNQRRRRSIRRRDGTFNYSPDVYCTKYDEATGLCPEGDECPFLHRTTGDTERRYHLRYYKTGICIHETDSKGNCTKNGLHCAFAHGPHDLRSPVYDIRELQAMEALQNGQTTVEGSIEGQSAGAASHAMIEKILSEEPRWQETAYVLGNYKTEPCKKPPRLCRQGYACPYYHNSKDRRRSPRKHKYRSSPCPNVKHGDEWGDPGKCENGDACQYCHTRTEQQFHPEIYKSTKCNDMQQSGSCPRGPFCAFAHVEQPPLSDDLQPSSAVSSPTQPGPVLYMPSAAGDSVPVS"}
{"Strand": "GGUAGACCAGAAACCACAAAUUGACUUUUUUUCUUAGAAAAUAUUUCUAUUUGCGGUAAAUACCGUAAUAUGUAAAUAAUGUACAUCUGUUGAUUUCUGGAGUGUCUGUUAUUCAAUGAU", "bound/input enrichment [ratio]": 0.584}
{"Strand": "GACGAUGAAACAGUUGAUAGCUUAGGCCCCCUGGAAAAAGGACAAGUGAAAAAUGAGGCGCUCCGAGAAUUGAGAGUGGAGCUCAGCAAAAAACACCAAGCUCGAGAACUUGAUGGAUUU", "bound/input enrichment [ratio]": 0.148}
{"Strand": "CCUGGCACCCGAGCCCCUGAUCCCACAGAUAGUCGAAGUCUUCAUAUUCAGCACCCAGGGUACCGACCGGGAGCCGGGACGCUCUCCUCAGGCAACACACAUUGCCCUUCUAGGUUUAGU", "bound/input enrichment [ratio]": 0.913}
{"Strand": "UUCAGAGUCACAGUUCCCUUUAUUUCACAUAAGCCCAAACUGAUAGACAGUAACGGUGUUCCGUUUUAUACUAUAUUUGUGCUAUUUAAUUCUUUCUAUUUUCACAAUUAUUAAAUUGUG", "bound/input enrichment [ratio]": 1.23}
{"Strand": "GAUACAAAAAGGCUUUCCCGAGAAGAGAAGGGUCGCAGCAGCUGUGGUAGGAAUUUCUGGGUCCGUGGCCUUUCGUCUACAACCAGAGCCACGGAUCUGAAGAACCUGUUUAGCAGAUAU", "bound/input enrichment [ratio]": 0.375}
{"Strand": "AUCGUGGGAGCACUGAUGGCAAGUGGAAAAGAAGUAGCAGGAAAAAUUCCCAAAGGGAAGUCCGUCGACUUUGAAGCUAUGACAGCCCCUGGUUCAGAGGCCUUUAGCAAAGUCGCCAAA", "bound/input enrichment [ratio]": 0.147}
{"Strand": "UAUUGCAAGGACCUUCUUUGCUGCCAGUUAUCAUAGGCUGUUUUAAGUUAGAAAACUGAACCGCAACACUGAAUACUGUAGAAAUGCACUUUGCUCAGUAAUACUUGAGUUGUUGCAAUA", "bound/input enrichment [ratio]": 0.196}
{"Strand": "UCCGUAAACACAUUUUUGUUCUUAGUCUAUCUCUUGUACAAACGAUGUGCUUUGAAGAUGUCCGUGUAUAACAAUUGAUGUUUGUUUUCUGUUUGAUUUUAAACAGAGAAAAAAUAAAAG", "bound/input enrichment [ratio]": 0.237}
{"Strand": "GCUGGUCAUCCUCUGGCACAGAACGAACGUUGUCUUCACAUGUUUUUACAAGAUGAAAUAACCGAUAAAAGCUAUACUCCAUCUAAAAUAAGACAUGCCUGAAAUUUGGCAAGAAGGGGC", "bound/input enrichment [ratio]": 0.184}
{"Strand": "CAAGGGAAGCCCAACUUUGAAGAGUUCUUUGAAAUUCUAACUCCCAAAAUCAACCAGACAUUCCGUGGCAUCAUGACAAUGUUGAACAUGCAGUUUGUCAUCCGGGUGAGGAGAUGGGAU", "bound/input enrichment [ratio]": 0.125}
{"Strand": "CACAAACCUAAUGGACAGCAUGAGAUUUCCUUCAGCGUUGCAGAUACUGAAGUGACUUCCCGCAUAUCAAUCAAUUCUUCCGAUGUACCUGAAGUCACCCAGUCAGAGAAUGUUGGAUCA", "bound/input enrichment [ratio]": 0.13}
{"data": "Study 2", "target": "RNA binding protein fox-1 homolog 2, RRM domain, GST-SBP tag (RBFOX2, Homo sapiens, UniProt O43251-10, residues 100-194)", "technique": "RNA Bind-n-Seq", "molecule type": "RNA", "medium": "in vitro", "concentration": "365 nM", "notes": "natural RNA segment, single round, ends assumed", "reference": "no-protein control", "direction": "higher = stronger binding", "shared flanks, not repeated": "GGGAGUUCUACAGUCCGACGAUC … UGGAAUUCUCGGGUGCCAA", "Construct (chain)": "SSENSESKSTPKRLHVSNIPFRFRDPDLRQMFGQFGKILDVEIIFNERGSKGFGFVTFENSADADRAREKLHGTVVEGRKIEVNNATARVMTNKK"}
{"Strand": "AUUUUUAUAUAUAAAUAUUAUAUAAAUAAUGUAUAAAACAUUAAAAGUUAACUAUGUAAGAUAUUAUUUCUGAAACAAUUUAGCUAUAUCCACUAUGAUUAUAAACUGUG", "RBNS enrichment (R)": 1.67}
{"Strand": "CUCAGACUCCUGUGAAGGCACAGCUACAGUUGUGGCCUGAAGGAGGCCCAGCUGGGACUGUGUGCUCCCGGCCUUCUAGCCCCACAGCCCACAGACAUUGGUCUUGAGAG", "RBNS enrichment (R)": 0.437}
{"Strand": "GGGAAUGGUGUUAAAAAAGAAAAAAAGACAGAAAAGGCCUUAUGUGAUAUGUAUCAUAGUUAAUAAAUCAAUCUUGUAAAAAAAAAAACCAUAAAUAAAAACAGGCCUGA", "RBNS enrichment (R)": 0.957}
{"Strand": "AGUCCCAGCCUCAGCAGGCUGCUUGUCUUCAGUUGAUGGUGGAUUAAUGACAGAAGGAAGCCCCGCCCCUCACUGCUGUCAAAGCCUUCAGUAAACAUGUGAAUCCUGAA", "RBNS enrichment (R)": 0.252}
{"Strand": "UCCAGGAGCCAGUUGAGCCAGGGCAGCCACAUCCAGGCGUCUCCCUACCCUGGCUCUGCCAUCAGCCUUGAAGGGCCUCGAUGAAGCCUUCUCUGGAACCACUCCAGCCC", "RBNS enrichment (R)": 0.339}
{"Strand": "AGUGCUGGGAUUAAAGGCGUGCGCCACCACGUCUGGCUCCAUUUCUAAGUCUUGAACCAACUGACUCCCGAAUGCCAUUCCCGGAAGGAACCAAGUGGUGACUUUGUCCU", "RBNS enrichment (R)": 0.373}
{"Strand": "AGAAAUUUCUAAGCAGCAAAGCAUUCAUGAGGUGACUUGGGUGCUGUUAAAAGCAUUCAGUUUUAAAAGGGAAACAGACUAUAAAAGUUUGGAAAAUUUGCAGCCUGAUG", "RBNS enrichment (R)": 0.426}
{"Strand": "AUGAUUGUGACUUCUAGUUCUUUUCUAGAGGAUGCUGCUAGAAAAUGGUUUUGCUUUGUAUUUUAUAGCUUGUUACCCUUAGGUAGGUAACAUCUUACAUUCUGUUUUCU", "RBNS enrichment (R)": 1.9}
{"Strand": "UCUGUCUGUAAACUUUGACAUCCAACCUGGAAAUCUAUUUGGUCAUGGUUAAAACAUUAUUCUCCUAUGAUAUUCAGAUUCUAGUUCUAUAUACUUCAUUAUAUAACUUU", "RBNS enrichment (R)": 0.415}
{"Strand": "AUGCUACUGUCUAAGCGCAAAGUCCCUCAUCCUGAAGUAGACUAGAGCCCGGCCACAAAUUCUGAGGAAAAACAAAAACUAAAGGAUGAACGAACGAACGAACGAAUGAA", "RBNS enrichment (R)": 0.437}
{"Strand": "UGUUUGUUCAAAGGACCAGUUUUCCUAGGCCAAAGAAGUCUCUUCCCCAUGUUAGUCCUAUGCCUUGAAAUAUCAUGCACCAUGACCCACAGCCAUCUGGUUAUGUCUUA", "RBNS enrichment (R)": 1.12}
{"Strand": "AUUAAAAUACAAAGCAGUAAAAUGUCAUUUGCUGUACGAUUAUUAACUAUAAAUCUGGCUAUUUCUUCAUCCAGUAACCUAAAUAUGAUAUAUACUUUAUAUUGGGUAUG", "RBNS enrichment (R)": 0.36}
{"data": "Study 3", "target": "Prothrombin, mature alpha-thrombin (F2, Homo sapiens, UniProt P00734)", "technique": "aptamer microarray, sandwich", "molecule type": "DNA with 2'F-ANA", "medium": "in vitro", "concentration": "200 nM", "notes": "whole 15-mer aptamer, many near background", "together with": "Cy3 exosite-II aptamer, 400 nM", "direction": "higher = stronger binding", "strand": "GGTTGGTGTGGTTGG"}
{"Modification": "2'F-ANA at 2 5 9 14 15", "mean fluorescence intensity [a.u.]": 49.8}
{"Modification": "2'F-ANA at 3 4 6 7 8 9 10 12 15", "mean fluorescence intensity [a.u.]": 293}
{"Modification": "2'F-ANA at 3 5 8 9 11 13 14", "mean fluorescence intensity [a.u.]": 58.5}
{"Modification": "2'F-ANA at 2 4 6 9 10 11", "mean fluorescence intensity [a.u.]": 79.6}
{"Modification": "2'F-ANA at 1 4 6 7 8 11 12 14 15", "mean fluorescence intensity [a.u.]": 57.1}
{"Modification": "2'F-ANA at 1 2 6 8 10 12 13", "mean fluorescence intensity [a.u.]": 68.9}
{"Modification": "2'F-ANA at 7 9 10 12 13 14 15", "mean fluorescence intensity [a.u.]": 118}
{"Modification": "2'F-ANA at 2 3 5 6 9 13", "mean fluorescence intensity [a.u.]": 60.1}
{"Modification": "2'F-ANA at 3 4 5 11 12", "mean fluorescence intensity [a.u.]": 198}
{"Modification": "2'F-ANA at 1 3 5 6 8 11", "mean fluorescence intensity [a.u.]": 55.1}
{"Modification": "2'F-ANA at 2 4 6 12 14 15", "mean fluorescence intensity [a.u.]": 119}
{"Modification": "2'F-ANA at 1 3 4 5 8 9", "mean fluorescence intensity [a.u.]": 65.5}
{"Modification": "2'F-ANA at 1 3 7 13 15", "mean fluorescence intensity [a.u.]": 275}
{"Modification": "2'F-ANA at 1 2 4 5 6 7 8 10 11 15", "mean fluorescence intensity [a.u.]": 73.2}
{"Modification": "2'F-ANA at 1 5 8 14 15", "mean fluorescence intensity [a.u.]": 49}
{"Modification": "2'F-ANA at 1 2 4 5 6 7 8 9 10 11 12 15", "mean fluorescence intensity [a.u.]": 103}
{"Modification": "2'F-ANA at 3 13 14 15", "mean fluorescence intensity [a.u.]": 642}
{"Modification": "2'F-ANA at 1 8 9 10 13 15", "mean fluorescence intensity [a.u.]": 81}
{"Modification": "2'F-ANA at 2 4 6 7 10 15", "mean fluorescence intensity [a.u.]": 81.1}
{"Modification": "2'F-ANA at 1 4 7 9 10 11 12 15", "mean fluorescence intensity [a.u.]": 95.7}
{"Modification": "2'F-ANA at 3 11 14 15", "mean fluorescence intensity [a.u.]": 519}
{"Modification": "2'F-ANA at 7 11 12 14", "mean fluorescence intensity [a.u.]": 259}
{"Modification": "2'F-ANA at 1 3 4 6 7 8 9 10 11 15", "mean fluorescence intensity [a.u.]": 63.1}
{"Modification": "2'F-ANA at 1 2 5 7 10 11 12 13", "mean fluorescence intensity [a.u.]": 47.7}
{"Modification": "2'F-ANA at 1 5 6 7 10 11 13 14", "mean fluorescence intensity [a.u.]": 49.5}
{"data": "Study 4", "target": "Histone acetyltransferase KAT6A, winged helix 2, GST fusion (KAT6A, Homo sapiens, UniProt Q92794, residues 85-181)", "technique": "protein binding microarray", "molecule type": "double-stranded DNA, one strand shown", "medium": "in vitro", "concentration": "not given", "notes": "8-mer, flanks averaged, mean of 2 arrays, mostly near background", "reference": "not given", "direction": "higher = stronger binding", "Target sequence (chain)": "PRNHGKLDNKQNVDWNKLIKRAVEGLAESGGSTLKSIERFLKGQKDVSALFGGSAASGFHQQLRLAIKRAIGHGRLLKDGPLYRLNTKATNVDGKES"}
{"Strand": "CAGTTTTA", "E-score": 0.0746}
{"Strand": "ACATAAGT", "E-score": 0.0727}
{"Strand": "CCGTCATA", "E-score": -0.014}
{"Strand": "TAACCCTA", "E-score": -0.163}
{"Strand": "CTAAGGGC", "E-score": -0.0165}
{"Strand": "ACGTTAAA", "E-score": -0.129}
{"Strand": "AGTCTTTA", "E-score": -0.157}
{"Strand": "AAAAGGGG", "E-score": 0.00449}
{"Strand": "GACGAAAA", "E-score": 0.16}
{"Strand": "ACGTTGAC", "E-score": -0.156}
{"Strand": "CGATAATA", "E-score": 0.0266}
{"Strand": "ATTATGCC", "E-score": 0.15}
{"Strand": "ACAAAGGT", "E-score": -0.105}
{"Strand": "CGGAAAAG", "E-score": -0.0896}
{"Strand": "GTTACCGA", "E-score": -0.0217}
{"Strand": "CTAACTTC", "E-score": 0.208}
{"Strand": "ACACGAAA", "E-score": 0.107}
{"Strand": "ATTAGCGA", "E-score": -0.0998}
{"Strand": "ACACTAAT", "E-score": -0.121}
{"Strand": "AGGCTCAC", "E-score": -0.0768}
{"Strand": "CGGTTACA", "E-score": 0.0877}
{"Strand": "GACTACTA", "E-score": -0.0781}
{"Strand": "ATTTGACA", "E-score": 0.113}
{"Strand": "CCACACCC", "E-score": 0.0841}
{"Strand": "ACTCAATA", "E-score": 0.0405}
{"note": "A few entries again (study 4):"}
{"Strand": "ATTAGCGA", "E-score": -0.0998}
{"Strand": "ACAAAGGT", "E-score": -0.105}
{"Strand": "GACGAAAA", "E-score": 0.16}
{"Strand": "CGGTTACA", "E-score": 0.0877}
{"Strand": "ACTCAATA", "E-score": 0.0405}
{"Strand": "ACACTAAT", "E-score": -0.121}
{"Strand": "ACATAAGT", "E-score": 0.0727}
{"Strand": "ACGTTAAA", "E-score": -0.129}
{"Strand": "TAACCCTA", "E-score": -0.163}
{"Strand": "GACTACTA", "E-score": -0.0781}
{"Strand": "AGGCTCAC", "E-score": -0.0768}
